Assay results collected from several papers.
Lines come from different studies, so protocols differ. Several values in a cell are separate wells, animals, samples, runs or records.
UniProt Q16832, sequence (whole entry, looked up): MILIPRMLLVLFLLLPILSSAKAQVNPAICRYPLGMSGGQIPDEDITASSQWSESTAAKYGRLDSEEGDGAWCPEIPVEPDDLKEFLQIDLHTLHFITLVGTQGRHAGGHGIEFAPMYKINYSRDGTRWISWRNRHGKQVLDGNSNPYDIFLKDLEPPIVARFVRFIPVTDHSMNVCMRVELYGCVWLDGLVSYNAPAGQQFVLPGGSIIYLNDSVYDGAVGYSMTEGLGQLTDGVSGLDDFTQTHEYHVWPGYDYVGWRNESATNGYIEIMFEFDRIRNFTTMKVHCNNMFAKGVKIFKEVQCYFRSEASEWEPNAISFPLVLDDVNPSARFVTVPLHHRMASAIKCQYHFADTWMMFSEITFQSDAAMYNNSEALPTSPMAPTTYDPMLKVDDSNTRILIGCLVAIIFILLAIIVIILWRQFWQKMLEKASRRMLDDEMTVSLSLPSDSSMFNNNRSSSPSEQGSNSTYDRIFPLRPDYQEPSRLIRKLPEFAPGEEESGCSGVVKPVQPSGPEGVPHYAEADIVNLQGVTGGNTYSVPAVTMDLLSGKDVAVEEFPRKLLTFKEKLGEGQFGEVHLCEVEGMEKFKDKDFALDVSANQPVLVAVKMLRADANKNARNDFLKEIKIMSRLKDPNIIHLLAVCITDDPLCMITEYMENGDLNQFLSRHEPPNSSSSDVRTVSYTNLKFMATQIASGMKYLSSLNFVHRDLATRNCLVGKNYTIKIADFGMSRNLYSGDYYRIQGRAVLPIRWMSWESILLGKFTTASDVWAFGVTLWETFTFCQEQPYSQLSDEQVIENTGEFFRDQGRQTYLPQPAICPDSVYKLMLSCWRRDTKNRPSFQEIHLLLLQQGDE
UniProt Q8TBX8, sequence (whole entry, looked up): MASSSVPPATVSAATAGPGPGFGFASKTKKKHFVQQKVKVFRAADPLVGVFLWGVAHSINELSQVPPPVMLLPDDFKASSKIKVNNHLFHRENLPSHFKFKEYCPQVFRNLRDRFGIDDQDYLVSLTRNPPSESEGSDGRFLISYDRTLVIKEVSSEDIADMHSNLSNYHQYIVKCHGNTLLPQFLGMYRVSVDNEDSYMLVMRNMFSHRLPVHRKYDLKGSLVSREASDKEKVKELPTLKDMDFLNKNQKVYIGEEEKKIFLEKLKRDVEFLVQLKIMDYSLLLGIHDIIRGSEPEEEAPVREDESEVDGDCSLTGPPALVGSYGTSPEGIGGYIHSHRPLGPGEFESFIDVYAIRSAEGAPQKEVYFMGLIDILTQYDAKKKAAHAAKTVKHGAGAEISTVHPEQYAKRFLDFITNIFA
UniProt Q5TCY1, sequence (whole entry, looked up): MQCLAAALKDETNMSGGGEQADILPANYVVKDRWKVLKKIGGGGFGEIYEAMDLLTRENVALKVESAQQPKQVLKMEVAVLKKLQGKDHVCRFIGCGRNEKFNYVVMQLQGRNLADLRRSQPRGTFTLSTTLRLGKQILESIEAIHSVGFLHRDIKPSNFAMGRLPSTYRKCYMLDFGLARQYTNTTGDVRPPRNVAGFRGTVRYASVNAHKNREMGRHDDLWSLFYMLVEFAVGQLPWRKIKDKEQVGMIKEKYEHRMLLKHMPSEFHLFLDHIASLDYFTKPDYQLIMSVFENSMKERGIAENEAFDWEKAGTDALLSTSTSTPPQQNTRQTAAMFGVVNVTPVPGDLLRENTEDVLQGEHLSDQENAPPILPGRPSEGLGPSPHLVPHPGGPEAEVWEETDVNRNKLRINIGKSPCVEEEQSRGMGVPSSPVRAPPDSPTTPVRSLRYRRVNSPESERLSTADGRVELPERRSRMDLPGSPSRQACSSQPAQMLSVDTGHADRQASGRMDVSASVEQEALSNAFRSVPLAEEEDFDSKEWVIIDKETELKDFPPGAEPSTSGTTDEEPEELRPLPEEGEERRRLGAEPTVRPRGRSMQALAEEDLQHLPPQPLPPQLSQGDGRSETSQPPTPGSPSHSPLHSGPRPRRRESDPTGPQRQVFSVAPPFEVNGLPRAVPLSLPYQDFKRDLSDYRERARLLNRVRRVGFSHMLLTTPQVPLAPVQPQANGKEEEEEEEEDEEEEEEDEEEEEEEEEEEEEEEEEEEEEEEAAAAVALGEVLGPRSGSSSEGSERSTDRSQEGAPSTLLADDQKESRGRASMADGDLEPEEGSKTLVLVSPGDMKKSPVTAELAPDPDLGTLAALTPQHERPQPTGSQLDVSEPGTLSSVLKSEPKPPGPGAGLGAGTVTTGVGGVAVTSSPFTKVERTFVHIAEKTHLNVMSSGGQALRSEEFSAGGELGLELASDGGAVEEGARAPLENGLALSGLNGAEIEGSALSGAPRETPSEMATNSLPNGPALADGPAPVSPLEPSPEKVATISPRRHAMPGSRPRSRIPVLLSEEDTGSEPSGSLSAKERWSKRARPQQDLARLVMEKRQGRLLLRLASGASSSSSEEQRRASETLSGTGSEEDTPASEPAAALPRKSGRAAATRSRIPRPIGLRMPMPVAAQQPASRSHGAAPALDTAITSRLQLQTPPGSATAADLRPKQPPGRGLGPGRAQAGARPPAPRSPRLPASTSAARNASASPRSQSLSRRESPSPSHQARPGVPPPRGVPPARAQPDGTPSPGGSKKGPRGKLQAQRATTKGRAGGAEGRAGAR
UniProt Q00526, sequence (whole entry, looked up): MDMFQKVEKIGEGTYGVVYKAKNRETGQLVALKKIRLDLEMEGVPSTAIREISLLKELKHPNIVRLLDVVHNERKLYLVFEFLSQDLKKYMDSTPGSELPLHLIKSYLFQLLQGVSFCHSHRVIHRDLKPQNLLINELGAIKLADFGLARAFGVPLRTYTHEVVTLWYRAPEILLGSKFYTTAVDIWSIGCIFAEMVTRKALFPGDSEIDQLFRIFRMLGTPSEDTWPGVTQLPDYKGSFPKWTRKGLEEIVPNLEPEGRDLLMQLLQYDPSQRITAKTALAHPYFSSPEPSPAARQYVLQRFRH

CNc1ncc2c(/C=C/C(=O)N3CCC(OC)CC3)nn(Cc3cccc(C(F)(F)F)c3)c2n1 — remaining activity (Tau-tubulin kinase 1 (TTBK1, Homo sapiens, UniProt Q5TCY1); enzyme activity, inhibitor, radiometric; 1 µM): 103%
COc1cc(N2CCC(N3CCN(C)CC3)CC2)ccc1Nc1ncc(Cl)c(Nc2ccccc2P(C)(C)=O)n1 — viability (Ba/F3 EML4-ALK; cell growth or viability, CCK-8; 1 µM, 1 h): 64% and 68%
CC(=O)c1nn(-c2ccc(C)cc2)/c(=N/N=C(\C)c2ccc(NC(=O)c3ccccc3)cc2)s1 — viability (WI-38; cell growth or viability, MTS; 5 µM, 24 h): 4.93%
CNC(=O)c1cc(Oc2ccc(NC(=O)Nc3ccc(Cl)c(C(F)(F)F)c3)cc2)ccn1 — viability (WI-38; cell growth or viability, MTT; 3.125 µM, 24 h): 78.6%
CCCCC(=O)Nc1ccc(-c2ccc3ncn(CCC)c(=O)c3c2)cn1 — remaining binding (Phosphatidylinositol 5-phosphate 4-kinase type-2 gamma (PIP4K2C, Homo sapiens, UniProt Q8TBX8); binding, competition with immobilised ligand; 0.5 µM): 0.1%
Nc1ccn([C@@H]2O[C@H](CO)[C@@H](O)C2(F)F)c(=O)n1 — viability (MDA-MB-231; cell growth or viability, MTT; 1.25 µg/mL, 24 h): 81.7%
Cc1cc([C@@H](C)Nc2ccccc2C(=O)O)c2nc(N3CCC(F)(F)CC3)c(C#N)c(=O)n2c1 — remaining binding (Cyclin-dependent kinase 3 (CDK3, Homo sapiens, UniProt Q00526); binding, competition with immobilised ligand; 10 µM): 83%
N#CC(C(=O)Nc1cccc(C(F)(F)F)c1)=C1Sc2nc3ccc(S(=O)(=O)N4CCCC4)cc3nc2S1 — viability (WI-38; cell growth or viability, MTT; 100 µM, 24 h): 43%
COc1cccc2c1C(=O)c1c(O)c3c(c(O)c1C2=O)C[C@@](O)(C(=O)CO)C[C@@H]3O[C@H]1C[C@H](N)[C@H](O)[C@H](C)O1 — viability (K562; cell growth or viability, MTT; 6.25 µg/mL): 76.1%
O=C1CCCCC1=C1Sc2nc3ccc(S(=O)(=O)N4CCCC4)cc3nc2S1 — viability (WI-38; cell growth or viability, MTT; 1.56 µM, 24 h): 100%
COc1cccc(NC(=O)Nc2ccc(Oc3nc4ccccc4n4cnnc34)cc2)c1 — viability (WI-38; cell growth or viability, MTT; 12.5 µM, 24 h): 87.1%
CCOC(=O)C(C(C)=O)=C1Sc2nc3ccc(S(=O)(=O)N4CCCC4)cc3nc2S1 — viability (WI-38; cell growth or viability, MTT; 100 µM, 24 h): 36.1%
C=CC(=O)N1CCC(COCC(=O)N2CCN(c3nc(-c4cnc(N)nc4C(F)F)nc(N4CCOC[C@@H]4C)n3)CC2)CC1 — remaining binding (Discoidin domain-containing receptor 2 (DDR2, Homo sapiens, UniProt Q16832); binding, competition with immobilised ligand; 1 µM): 100%

Excerpt of the above:
CNC(=O)c1cc(Oc2ccc(NC(=O)Nc3ccc(Cl)c(C(F)(F)F)c3)cc2)ccn1 — viability (WI-38; cell growth or viability, MTT; 3.125 µM, 24 h): 78.6%
COc1cccc(NC(=O)Nc2ccc(Oc3nc4ccccc4n4cnnc34)cc2)c1 — viability (WI-38; cell growth or viability, MTT; 12.5 µM, 24 h): 87.1%
